Published values from different studies.
Every numbered part comes from another study and shows a few of its results, in no order.

Sample 1
Target: Histone acetyltransferase KAT6A, both winged helices, GST fusion (KAT6A, Homo sapiens, UniProt Q92794, residues 1-181)
Method: protein binding microarray
Form: double-stranded DNA, one strand shown
Sample: in vitro
Tested at: not given
Notes: 8-mer, flanks averaged, mean of 2 arrays, mostly near background
Relative to: not given
Direction: higher = stronger binding
Construct (chain): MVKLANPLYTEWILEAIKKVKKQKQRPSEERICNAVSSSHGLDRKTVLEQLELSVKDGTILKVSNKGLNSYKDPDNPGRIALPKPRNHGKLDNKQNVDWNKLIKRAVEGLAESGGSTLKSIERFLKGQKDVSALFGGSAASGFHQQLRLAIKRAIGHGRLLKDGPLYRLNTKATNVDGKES
| Oligonucleotide | E-score |
| --- | --- |
| AAGAGGTC | -0.139 |
| CGTTCATC | 0.0984 |
| GGAAGGGA | -0.0655 |
| GAAGGTGA | -0.00525 |
| AGATACAT | -0.0647 |
| TGATATCA | -0.234 |
| GATGCATA | -0.0298 |
| AAAGCAAA | -0.093 |
| AAGAGCTG | -0.18 |
| GCCGGGCC | 0.208 |
| CTTGTCGA | -0.0786 |
| AAACCGGC | 0.26 |
| CCTGTAAA | -0.189 |
| CAGTGGAG | -0.0543 |
| TCCTTCGA | 0.0533 |
| ATAAAGCA | -0.253 |
| AAGTATTA | -0.207 |
| AGGCGCCC | 0.16 |
| CTGGGATA | -0.109 |
| ACGGGATG | 0.2 |
| AAGTAGCA | -0.244 |
| AGTTAAGC | -0.037 |
| GTCAGGAA | -0.0525 |
| ACCTTTAG | -0.112 |
| AGGGAATG | -0.115 |

Sample 2
Target: Prothrombin, mature alpha-thrombin (F2, Homo sapiens, UniProt P00734)
Method: aptamer microarray, sandwich
Form: DNA with 2'F-ANA
Sample: in vitro
Tested at: 200 nM
Notes: whole 15-mer aptamer, many near background
With: Cy3 exosite-II aptamer, 400 nM
Direction: higher = stronger binding
Oligonucleotide: GGTTGGTGTGGTTGG
| Modification | mean fluorescence intensity [a.u.] |
| --- | --- |
| 2'F-ANA at 2 5 8 9 10 12 13 14 | 51.9 |
| 2'F-ANA at 3 7 10 12 15 | 711 |
| 2'F-ANA at 2 4 5 7 8 10 14 15 | 82.1 |
| 2'F-ANA at 5 6 7 10 13 14 | 43.7 |
| 2'F-ANA at 4 5 6 7 11 15 | 61.3 |
| 2'F-ANA at 1 3 4 6 9 10 11 12 | 73.2 |
| 2'F-ANA at 1 2 3 5 8 11 12 13 14 15 | 52.5 |
| 2'F-ANA at 3 4 5 7 12 15 | 391 |
| 2'F-ANA at 1 2 3 4 8 9 10 14 | 52.7 |
| 2'F-ANA at 1 3 5 12 13 15 | 94.6 |
| 2'F-ANA at 2 6 7 8 9 11 12 14 15 | 238 |
| 2'F-ANA at 4 6 8 10 11 12 15 | 86.3 |
| 2'F-ANA at 1 2 4 7 8 11 13 | 102 |
| 2'F-ANA at 1 2 3 5 7 8 9 10 13 14 | 51.9 |
| 2'F-ANA at 1 4 6 12 14 15 | 58.2 |
| 2'F-ANA at 2 6 8 9 10 14 | 98.7 |

Sample 3
Target: Sal-like protein 4, full length isoform B (SALL4, Homo sapiens, UniProt Q9UJQ4-2, residues 1-616)
Method: universal PBM
Form: double-stranded DNA, one strand shown
Sample: in vitro
Tested at: not given
Notes: 8-mer, flanks averaged, mean of replicates
Direction: higher = stronger binding
| Oligonucleotide | E-score |
| --- | --- |
| CAATTCTC | 0.0741 |
| CCGCTGCG | -0.242 |
| TAATGGTA | 0.144 |
| ACATTATG | 0.33 |
| AGGAGAGG | -0.12 |
| ACGACACC | -0.149 |
| ATCTTTTA | 0.284 |
| GGATCGAA | -0.105 |
| GAAAGGAC | 0.117 |
| GCATCCCA | -0.133 |
| ACCGGCAC | -0.163 |
| ATCAATCA | 0.234 |
| GAATGACC | -0.117 |
| GGAACTAC | -0.134 |
| CGTCCACA | -0.131 |
| GACTGGAC | -0.255 |

Sample 4
Target: Centromere-binding protein 1, full length, His-tagged (CBF1, Saccharomyces cerevisiae, UniProt P17106, residues 1-351)
Chain of UniProt P17106 (whole entry, looked up): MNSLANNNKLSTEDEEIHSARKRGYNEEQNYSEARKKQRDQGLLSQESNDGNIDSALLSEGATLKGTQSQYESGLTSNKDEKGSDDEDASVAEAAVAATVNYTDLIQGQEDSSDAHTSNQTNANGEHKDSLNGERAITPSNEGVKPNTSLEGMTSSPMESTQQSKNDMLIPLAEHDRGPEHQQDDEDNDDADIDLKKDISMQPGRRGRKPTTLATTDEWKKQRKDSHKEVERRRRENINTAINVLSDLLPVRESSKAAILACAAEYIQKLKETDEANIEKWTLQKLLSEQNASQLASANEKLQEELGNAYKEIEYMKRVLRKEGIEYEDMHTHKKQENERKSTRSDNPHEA
Method: competition protein-binding microarray
Form: double-stranded DNA, one strand shown
Sample: in vitro
Tested at: 2 µM
Notes: whole 60-bp probe, lowest competitor level
With: Pho4 competitor, 0.05 µM
Direction: higher = stronger binding
Constant ends, left off below: … GTCTTGATTCGCTTGACGCTGCTG
| Oligonucleotide | fluorescence intensity |
| --- | --- |
| AACTTCGAAATTGGGAGCGTGGGACCAGAAACTTCC | 75.3 a.u. |
| AAATTACTAAGTTTTCACGTGATTTACCCCGTATGA | 3670 a.u. |
| AAGGGATGGTGGCGTCACATGGGTGGTCCAAAGCAA | 386 a.u. |
| ACCGCGGACGACGGCCACGCAGGCAAAGAATGCTTT | 53.1 a.u. |
| AAATTACTAAGTTGTACCGTGGGTGACGCCGTATGA | 70.3 a.u. |
| CTAACGAAGGTTTGTCACCCGACTTACAAGCCAAGT | 76.7 a.u. |
| CAAACCACTTTGGTTACCGTGACGAACTGCGAATCT | 91.3 a.u. |
| AGCGTTCAATGGCGTCATGCGGCGTTGCGAAATTTC | 83.8 a.u. |
| CATACCCAACCTTGTATAGTGGGTGAAGATATTTGT | 69.3 a.u. |
| CTTTCCCGATCTTTTCACGTGCAATTAGCACATTTG | 1290 a.u. |
| CCTTGATGGTTCCGTCACGGGAACCAGAGATAATCA | 291 a.u. |
| TCAGTATAGCAGCGACGCGTGGGTATCAGGAAGAAT | 75.5 a.u. |
| TACAATAAATAAGTTCTATCATAATACAAGGGAATT | 78.2 a.u. |
| AAATTACTAAGTTAACACGTGTTTTACCCCGTATGA | 1630 a.u. |
| AAATTACTAAGTTGGATTGTGGGTGACGCCGTATGA | 60.3 a.u. |
| TCTATAATAACCTCCCATGTGAAAATACCAACCTCT | 117 a.u. |
| TAAACGAGTACTTCACACGTAGGCCAAAGCACTCCA | 61.6 a.u. |
| AGGTGCTGCAACAAAAGCAAGTCCCACTGGACCTTT | 59.5 a.u. |

Sample 5
Target: RNA binding protein fox-1 homolog 2, RRM domain, GST-SBP tag (RBFOX2, Homo sapiens, UniProt O43251-10, residues 100-194)
Method: RNA Bind-n-Seq
Form: RNA
Sample: in vitro
Tested at: 365 nM
Notes: natural RNA segment, single round, ends assumed
Relative to: no-protein control
Direction: higher = stronger binding
Constant ends, left off below: GGGAGUUCUACAGUCCGACGAUC … UGGAAUUCUCGGGUGCCAA
Residues (chain): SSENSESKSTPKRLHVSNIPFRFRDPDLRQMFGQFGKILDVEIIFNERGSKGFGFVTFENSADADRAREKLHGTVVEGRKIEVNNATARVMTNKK
| Oligonucleotide | RBNS enrichment (R) |
| --- | --- |
| GGGCCUGACCCCAACACCUGCAUGCUGGGUCCAGAGCCUUCUGUUUCACCGUGCGUGGACACUGCUAGGCCGCCUGGGGUCCCCUGCCUCCUGCCUGUCGCUGCCGUGGU | 6.36 |
| GUGCCUUGAUUGAUUAGAUAAAGAUUUCUAGUAGGCAGCAAAAGACCAAAUCUCAGUUGUUUGCUUCUUGCCAUCACUGGUCCAGGUCUUCAGUUUCCGAAUCUCUUUCC | 0.226 |
| UUCCUCCUGAAACUUGAGGAAGUCUUUUGUCUUCCAGCUGCUCAGGGUUCUCUGGUCCAAGACCCUGCUUUAAAGAGAGUCUUUGGCGUGCUCAGACUCCAGCGCUCCGU | 0.229 |
| AUUCCUCAUCUCAAGGCCACCAGUCCCCAGUUAUCACCCUUGGAAAUCCUCUGUUUAGCUUAGUUGCACAAAAGGUAGUAUGUCCAGUGGCUAGAGGUGGGGUGGGAAGA | 0.504 |
| AUAAGUGGUGCCAUUGGAAUGUCAGCAUUGCUUGAGUGUCAUGCUGAGGGAUGGUCCUGACAGUAAACAGCGGGAAGACACCGGGAGCAUUGUAAUCGCUUGGUUAAUUG | 12.3 |
| AACUCCCCUGGCACUCAGCUCUGCCUCUAGUUCAGCCGCCCAGCCACUGAGAGUCAGGGCAUGGUGCUGCGGGGGAGGGCUCUUUUCUAUAUUUAUUUGAUAGCGAUAAG | 0.193 |
| CUCCUUUAAGAGCUGCUUGGUUGUCCAAAAAUGAAAACUCAAAAUAAACUUGGAAGAAGGAAAAAAAUAUGUGUUUAUUCUGAUUCAUUCUUUGUUGGGAAAUUGUCAAU | 0.6 |
| CCCUUCUUAACGAGCAAUAUGUCUGACCUGUACUAUAAGAUCUUUCUGAUAACGCAGAGAUUUUUUGUUUUUUUUUGGUAGCUCAGUAGAAGUGCGUCCUGUUUUCGCCU | 2.48 |
| CAGCACACACACUACCUGCAAUGGCCUGCCCAUUCCCUUCAGCUAUUUGUCCUUUUCUUACUGGCAGGUAGUUGCUCACAUAUUCAUCUCUUGCCAAAUAAGGGCCUGCU | 0.822 |
| UCUGUUCCUUUUGGCUCUAAUAUGCUACAACUGUAGGCCAAUUAUCACUUUACCAAUUAAGAGUUAGGCCAGAUAAGUGAAAUUUAACUUAAGGGCACACAGCUAAUAAG | 0.401 |
| CUGAGAAUGUCCCCCCCAAUGGCCUCCGCCAUCCAGAACUUGGUACAUAUUCUGGUGGCUCCCUGCUGGCCCUCUGCUCACACCUUGAAAGAGCCUUUUCAAAUACAGAU | 0.336 |
| UAGUGUGCCCCAAAUGCAGCUUCACUUUCCAGGUACCCUGAUGCAGAAUAAAGUUUUCAUCAUAAACACAGCUUCUGUAGUAUGUUUUCAGAUGAGUGAGUGUUCUUGAG | 6.43 |

Repeated from above (sample 1):
| Oligonucleotide | E-score |
| --- | --- |
| AGATACAT | -0.0647 |
| CTTGTCGA | -0.0786 |
| GGAAGGGA | -0.0655 |
| TCCTTCGA | 0.0533 |
| AAAGCAAA | -0.093 |
| AGTTAAGC | -0.037 |
| GATGCATA | -0.0298 |
| AAACCGGC | 0.26 |
| CGTTCATC | 0.0984 |
| AGGGAATG | -0.115 |
| AAGTAGCA | -0.244 |
| GAAGGTGA | -0.00525 |
